Assay results of several laboratories.
Values joined by “and” are separate records of one study, mostly repeats; a detail may differ. ± gives the spread as reported. Values after ≈ are worked out from the molar mass of the structure shown.
Chain of UniProt O60307 (whole entry, looked up): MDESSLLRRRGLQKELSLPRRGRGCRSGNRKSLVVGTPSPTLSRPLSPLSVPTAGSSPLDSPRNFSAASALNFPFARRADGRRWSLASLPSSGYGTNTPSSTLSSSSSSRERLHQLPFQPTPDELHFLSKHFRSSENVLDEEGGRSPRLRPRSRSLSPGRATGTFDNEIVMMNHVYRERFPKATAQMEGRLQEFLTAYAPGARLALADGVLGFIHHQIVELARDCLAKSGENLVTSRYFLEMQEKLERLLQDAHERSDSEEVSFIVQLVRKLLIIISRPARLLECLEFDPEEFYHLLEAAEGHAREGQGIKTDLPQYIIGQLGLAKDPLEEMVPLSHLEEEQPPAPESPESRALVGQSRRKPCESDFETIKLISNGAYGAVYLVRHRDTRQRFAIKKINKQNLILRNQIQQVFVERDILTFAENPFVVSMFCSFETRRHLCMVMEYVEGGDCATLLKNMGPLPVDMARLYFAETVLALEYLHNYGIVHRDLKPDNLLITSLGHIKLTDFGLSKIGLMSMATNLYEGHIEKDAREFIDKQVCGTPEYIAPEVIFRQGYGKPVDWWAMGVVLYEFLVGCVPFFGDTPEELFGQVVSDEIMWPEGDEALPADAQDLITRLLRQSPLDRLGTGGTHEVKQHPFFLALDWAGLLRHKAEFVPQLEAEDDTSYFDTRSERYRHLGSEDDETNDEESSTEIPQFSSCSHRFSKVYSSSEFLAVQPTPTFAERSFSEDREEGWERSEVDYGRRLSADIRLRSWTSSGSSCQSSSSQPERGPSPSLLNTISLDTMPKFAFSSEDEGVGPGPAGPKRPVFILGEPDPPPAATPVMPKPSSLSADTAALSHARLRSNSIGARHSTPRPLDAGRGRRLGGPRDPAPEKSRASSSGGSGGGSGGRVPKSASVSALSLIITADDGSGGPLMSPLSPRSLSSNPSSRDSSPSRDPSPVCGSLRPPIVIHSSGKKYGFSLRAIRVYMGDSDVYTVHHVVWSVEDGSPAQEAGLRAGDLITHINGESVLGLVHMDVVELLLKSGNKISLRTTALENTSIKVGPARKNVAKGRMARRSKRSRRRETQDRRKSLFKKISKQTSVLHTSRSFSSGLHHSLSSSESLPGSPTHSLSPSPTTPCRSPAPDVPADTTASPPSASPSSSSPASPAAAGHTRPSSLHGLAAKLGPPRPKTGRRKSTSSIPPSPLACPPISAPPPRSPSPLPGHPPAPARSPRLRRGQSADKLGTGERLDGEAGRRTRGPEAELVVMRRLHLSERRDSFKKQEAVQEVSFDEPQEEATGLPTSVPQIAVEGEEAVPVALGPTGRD
Chain of UniProt P06239 (whole entry, looked up): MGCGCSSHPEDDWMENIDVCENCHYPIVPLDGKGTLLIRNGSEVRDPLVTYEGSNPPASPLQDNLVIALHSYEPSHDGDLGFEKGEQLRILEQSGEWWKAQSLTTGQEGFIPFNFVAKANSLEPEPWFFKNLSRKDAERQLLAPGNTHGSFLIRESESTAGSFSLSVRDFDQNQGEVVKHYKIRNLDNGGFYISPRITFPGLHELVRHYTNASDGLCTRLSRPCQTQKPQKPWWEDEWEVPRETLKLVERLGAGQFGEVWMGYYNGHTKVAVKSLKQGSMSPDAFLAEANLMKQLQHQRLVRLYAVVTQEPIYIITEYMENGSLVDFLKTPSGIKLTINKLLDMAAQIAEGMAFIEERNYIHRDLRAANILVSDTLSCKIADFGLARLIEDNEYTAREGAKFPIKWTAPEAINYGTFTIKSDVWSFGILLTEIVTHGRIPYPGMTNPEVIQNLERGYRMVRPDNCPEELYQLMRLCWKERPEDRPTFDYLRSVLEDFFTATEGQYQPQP
Chain of UniProt P08684 (whole entry, looked up): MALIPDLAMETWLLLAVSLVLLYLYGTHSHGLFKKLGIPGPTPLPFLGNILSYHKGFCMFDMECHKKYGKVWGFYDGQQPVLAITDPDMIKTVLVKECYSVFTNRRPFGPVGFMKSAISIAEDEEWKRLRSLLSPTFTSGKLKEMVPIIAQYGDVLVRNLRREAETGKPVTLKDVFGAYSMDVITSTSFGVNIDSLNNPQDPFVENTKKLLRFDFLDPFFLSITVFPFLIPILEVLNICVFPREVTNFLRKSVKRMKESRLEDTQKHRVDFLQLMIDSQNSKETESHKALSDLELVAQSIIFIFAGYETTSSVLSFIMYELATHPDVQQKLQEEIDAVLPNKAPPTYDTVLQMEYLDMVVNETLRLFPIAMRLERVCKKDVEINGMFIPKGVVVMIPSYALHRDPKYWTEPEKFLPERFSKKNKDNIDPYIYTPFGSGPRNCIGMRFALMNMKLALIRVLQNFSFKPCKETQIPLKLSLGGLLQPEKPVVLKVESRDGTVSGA

Under “Cmax geometric mean”, `CC[C@H]1[C@@H](O)[C@@H]2[C@H](CC[C@]3(C)[C@@H]([C@H](C)CCNC(=O)NS(=O)(=O)c4ccc(C(C)(C)C)cc4)CC[C@@H]23)[C@@]2(C)CC[C@@H](O)C[C@@H]12` is recorded as 29.6 ng/mL (Cytochrome P450 3A4 (CYP3A4, Homo sapiens, UniProt P08684); human, plasma; 10 mg, day 1, compound alone).
For `C[C@@H](O)[C@@H](CO)NC(=O)[C@@H](CCCNC(=N)N)NC(=O)[C@@H]1CCCN1C(=O)[C@@H]1CSSC[C@H](NC(=O)[C@H](Cc2ccccc2)NC(=O)CN2CCN(CC(=O)O)CCN(CC(=O)O)CCN(CC(=O)O)CC2)C(=O)N[C@@H](Cc2ccc(O)cc2)C(=O)N[C@@H](Cc2ccccc2)C(=O)N[C@@H](CCC(N)=O)C(=O)N[C@@H](CC(N)=O)C(=O)N1` [gallium-68 labelled], the radiochemical purity was over 99% (PBS; 0 h, 37 °C).
`CN[C@H](CC(C)C)C(=O)N[C@H]1C(=O)N[C@@H](CC(N)=O)C(=O)N[C@H]2C(=O)N[C@H]3C(=O)N[C@H](C(=O)N[C@H](C(=O)O)c4cc(O)cc(O)c4-c4cc3ccc4O)[C@H](O)c3ccc(c(Cl)c3)Oc3cc2cc(c3O[C@@H]2O[C@H](CO)[C@@H](O)[C@H](O)[C@H]2O[C@H]2C[C@](C)(N)[C@H](O)[C@H](C)O2)Oc2ccc(cc2Cl)[C@H]1O` gave an MIC50 of 2 µg/mL (≈ 1.38 µM) (Enterococcus faecalis; intermediate susceptibility; 25% serum, 10 isolates).
For `CN[C@H](CC(C)C)C(=O)N[C@H]1C(=O)N[C@@H](CC(N)=O)C(=O)N[C@H]2C(=O)N[C@H]3C(=O)N[C@H](C(=O)N[C@H](C(=O)O)c4cc(O)cc(O)c4-c4cc3ccc4O)[C@H](O)c3ccc(c(Cl)c3)Oc3cc2cc(c3O[C@@H]2O[C@H](CO)[C@@H](O)[C@H](O)[C@H]2O[C@H]2C[C@](C)(N)[C@H](O)[C@H](C)O2)Oc2ccc(cc2Cl)[C@H]1O`, the MIC range was 0.25 µg/mL (≈ 0.173 µM) (Streptococcus pyogenes; ATCC 19615).
For `Cc1cc(OC(C)C)ccc1C(=O)C(C)(C)NC(=O)c1sccc1C`, the EC50 was 0.19 µg/mL (Monilinia mali; mycelial growth; PSA medium; 20 °C, suspension concentrate 400 g/L).
`CN1CCN(c2ccc(Nc3ncc4cc(C#N)c(=O)n(C5CCCC5)c4n3)cc2)CC1` has an IC50 of 21.4 nM (LCK (Homo sapiens, UniProt P06239)).
The sarcomere length of `CC(C)NCC(O)c1ccc(O)c(O)c1` (stereo not drawn) is reported as 1.72 µm (ventricular cardiomyocytes, C57BL/6 mouse; dose not given, 0.32 s).
`Cc1cc(F)cc2c(CCC(=O)N[C@@H]3C(=O)NC[C@H]3O)c(-c3ccc(F)cc3)[nH]c12` gave a UACR of 1430 µg/mg and 4940 µg/mg and 2000 µg/mg and 2700 µg/mg and 4830 µg/mg (mice, APOL1 G2, single copy; oral, 30 mg/kg twice daily, day 6, added: IFNγ plasmid injection).
`CC(C)C[C@H](NC(=O)C[C@H](O)[C@H](CC(C)C)NC(=O)[C@H](Cc1c[nH]cn1)NC(=O)CNC(=O)[C@@H](NC(=O)[C@H](C)NC(=O)[C@H](Cc1c[nH]c2ccccc12)NC(=O)[C@H](CCC(N)=O)NC(=O)[C@@H](Cc1ccccc1)NC(=O)COCCOCCNC(=O)CCC(C(=O)O)N1CCN(CC(=O)O)CCN(CC(=O)O)CCN(CC(=O)O)CC1)C(C)C)C(N)=O` (stereo partly drawn) [lutetium-177 labelled] gave a tissue uptake of 0.29 ± 0.05 %ID/g (BALB/c nu/nu mice, skin; intravenous, 100 pmol, 1 h, added: PA 300 µg).
With `CC(=O)NC[C@H]1CN(c2ccc(N3CCOCC3)c(F)c2)C(=O)O1` the MIC50 was 2 µg/mL (≈ 5.93 µM) (Staphylococcus epidermidis).
`Cc1nc2[nH]c(=O)n(OS(=O)(=O)c3ccccc3)c(=O)c2s1`: “root length inhibition” 20% (Brassica rapa; 10 mg/mL, 72 h).
For `Cc1cc(Nc2ccc(S(F)(F)(F)(F)F)cc2)n2nc(C(C)(F)F)nc2n1`, “patients with QTcB above threshold” read 11.1% (Plasmodium falciparum; 12-lead Holter ECG; human malaria patients; oral, 250 mg, QTc above 450 ms).
`O=c1[nH]c2ncsc2c(=O)n1O` has a growth inhibition of 0% (Brassica rapa; 750 g/ha, 21 days, pre-emergence, glasshouse pot).
`CC(=O)N(C)[C@H]1CCN(C(=O)c2cnc3c(c2)C[C@](C)(c2ccc(F)cc2)N3)C1` gave a pantetheine increase of 1410% (vanin activity; LC-MS/MS; human, plasma; 30 mg, 4 h post-dose, median; reference: baseline).
`O=c1[nH]c2nc(-c3cccnc3)sc2c(=O)n1O` — result for “root length inhibition”: 24% (Brassica rapa; 100 mg/mL, 72 h).
For `Cc1n[nH]c2ccc(-c3cc(OC[C@@H](N)Cc4ccccc4)cnc3-c3ccoc3)cc12`, “log2 fold change” read -2.47 (kinase binding, competitor, MIB/MS competition, measured: CKA1; Candida albicans cell lysate; 10 µM; reference: DMSO).
`Cn1cc(-c2ccc(-c3cncc(Cl)c3N3CCC4(CCNC4=O)CC3)cc2)cn1`: “fold change in expression” 2.86 (COLO 205; microarray, measured: PDGFB; concentration not given, 2 h; reference: untreated cells).
The inhibition of `CC[C@@H]1[C@H](F)C(=O)N[C@@H]1COc1nccc2cc(C(N)=O)c(OC)cc12` is reported as 9.3% (MAST3 (Homo sapiens, UniProt O60307); ATP-site probe binding, ActivX profiling; THP-1 cell lysate; 0.04 mM, Lys2 site).
For `Cc1nc2[nH]c(=O)n(O)c(=O)c2s1`, “root length inhibition” read 95% (Brassica rapa; 100 mg/mL, 72 h).
With `CCn1cc(-c2cc(Cn3ccnc3)cc3c2CCN([C@H](c2cc(OC)ccn2)C2CC2)C3=O)c(C(F)(F)F)n1` the EC50 was 114 nM (LS174T; cell growth, inhibitor; 120 h).
`Oc1ccccc1-c1n[nH]cc1-c1ccnc2ccccc12`: “log2 fold change” -0.03 (CAK1 (Candida albicans); kinase binding, MIB/MS competition; Candida albicans lysate; 1 µM; reference: DMSO).
`Cc1cccc(-c2[nH]c(CNc3ccccc3F)nc2-c2ccc3ncnn3c2)n1` gave a viability of 83% (bone marrow CD138+ myeloma cells; XTT; 0.6 µM, phenol red-free RPMI).
Under “root length inhibition”, `Cc1nc2c(=O)n(O)c(=O)[nH]c2s1` is recorded as 20% (Brassica rapa; 10 mg/mL, 72 h).
`c1coc(-c2n[nH]cc2-c2ccnc3ccccc23)c1`: “log2 fold change” -0.18 (CAK1 (Candida albicans); kinase binding, MIB/MS competition; Candida albicans lysate; 10 µM; reference: DMSO).
For `OC(CCN1CCCCC1)(c1ccccc1)C1CC2C=CC1C2` (stereo not drawn), “change, beta power, EEG O1-Pz” read -1.9% (resting-state EEG; healthy elderly humans; oral, 2 mg, eyes closed, LS mean; reference: baseline).
`CC(C)C[C@H](NC(=O)C[C@H](O)[C@H](CC(C)C)NC(=O)[C@H](Cc1c[nH]cn1)NC(=O)CNC(=O)[C@@H](NC(=O)[C@H](C)NC(=O)[C@H](Cc1c[nH]c2ccccc12)NC(=O)[C@H](CCC(N)=O)NC(=O)[C@@H](Cc1ccccc1)NC(=O)COCCOCCNC(=O)CCC(C(=O)O)N1CCN(CC(=O)O)CCN(CC(=O)O)CC1)C(C)C)C(N)=O` (stereo partly drawn) [lutetium-177 labelled] gave a tissue uptake of 0.0108 ± 0.0004 %ID/g (female BALB/c nu/nu mice, blood; intravenous, 50 pmol, 24 h).
`CC1(C)CCC(c2ccc(Cl)cc2)=C(CN2CCN(c3ccc(C(=O)NS(=O)(=O)c4ccc(N[C@H](CCN5CCOCC5)CSc5ccccc5)c(S(=O)(=O)C(F)(F)F)c4)cc3)CC2)C1` — result for “drug secreted with TRL”: 15.6 ± 6.7% (C2BBe1 monolayers; 50 % saturated solubility, 4 h, basolateral fractions 1-10, added: oleic acid/monoolein micelles).

Excerpt of the above:
`Cc1nc2[nH]c(=O)n(OS(=O)(=O)c3ccccc3)c(=O)c2s1`: “root length inhibition” 20% (Brassica rapa; 10 mg/mL, 72 h).
For `Cc1cc(Nc2ccc(S(F)(F)(F)(F)F)cc2)n2nc(C(C)(F)F)nc2n1`, “patients with QTcB above threshold” read 11.1% (Plasmodium falciparum; 12-lead Holter ECG; human malaria patients; oral, 250 mg, QTc above 450 ms).
